Results gathered from unrelated publications.
Compare with care: the assays were run in different laboratories. ± gives the spread as reported.

SMILES | test | system | setting | Cmax
CCCCCCCOc1ccc(CCC(N)(CO)CO)cc1C(F)(F)F.Cl | – | healthy men, plasma | oral, 0.75 mg, day 1 | 0.337 ng/mL
O=C(O)c1cc(O)c(O)c(O)c1 | – | broiler chickens, serum | oral, in feed, 2000 mg/kg feed, 24 h, corn diet, no tannins | 360 ± 80 nM
C[C@@H]1CCO[C@H]2Cn3cc(C(=O)NCc4ccc(F)cc4F)c(=O)c(O)c3C(=O)N12 | population PK, post-hoc | children, 20 to <25 kg, plasma | oral, 30 mg dispersible tablet, steady state, geometric mean | 6620 ng/mL
C[C@H](NC(=O)/C(C#N)=C/c1cccc(Br)n1)c1ccccc1 | LC-MS/MS | patients, plasma | oral, 2 mg/kg, cycle 1 day 8 | 31.8 ng/mL
N[C@@H]1c2ccccc2OC12CCN(c1cnc3c(N4CCCc5ncccc54)n[nH]c3n1)CC2 | – | advanced metastatic solid tumour patients, plasma | oral, 75 mg once daily, cycle 1 day 15, geometric mean | 1400 ng/mL
COc1nnc2ccc(N3CCC(c4ccc(OCCN5CCN(C)C(=O)[C@H]5C)cc4)CC3)nn12 | – | patients, plasma | oral, 10 mg twice daily, single dose, monotherapy | 53 nM
OC[C@H]1O[C@@H](c2ccc(F)c(Cc3cc4ccccc4s3)c2)[C@H](O)[C@@H](O)[C@@H]1O | – | Japanese type 2 diabetes patients, plasma | oral, 100 mg/day, day 1 | 2300 ± 737 ng/mL
CCNC(=O)[C@@H]1CCCN1C(=O)[C@H](CCCNC(=N)N)NC(=O)[C@H](CC(C)C)NC(=O)[C@@H](CC(C)C)NC(=O)[C@H](Cc1ccc(O)cc1)NC(=O)[C@H](CO)NC(=O)[C@H](Cc1c[nH]c2ccccc12)NC(=O)[C@H](Cc1c[nH]cn1)NC(=O)[C@@H]1CCC(=O)N1 | – | healthy premenopausal women, plasma | intramuscular, 3.75 mg monthly depot, day 1 | 17.5 ± 2.7 ng/mL
O=C(c1cccnc1-c1ccncc1)N1CCC(O)(Cc2ccccc2)CC1 | – | healthy Japanese adults, plasma | oral, 600 mg single dose, arithmetic mean | 3280 ng/mL

Excerpt of the above:
SMILES | test | system | setting | Cmax
OC[C@H]1O[C@@H](c2ccc(F)c(Cc3cc4ccccc4s3)c2)[C@H](O)[C@@H](O)[C@@H]1O | – | Japanese type 2 diabetes patients, plasma | oral, 100 mg/day, day 1 | 2300 ± 737 ng/mL
